Results gathered from unrelated publications.
Each line is one published result; not all experiments were run side by side. ± marks the error that the study gave.
POLB: DNA polymerase beta (POLB, Homo sapiens, UniProt P06746)

SMILES | target | assay | system | conditions | how to read | endpoint | value
Nc1nc2c(ncn2[C@H]2C[C@H](O)[C@@H](COP(=O)(O)OP(=O)(O)[C@H](Cl)P(=O)(O)O)O2)c(=O)[nH]1 | POLB | quench-flow kinetics |  | opposite C | reference: S over R | Kd ratio | ~3 fold
N=C(N)NCCC[C@@H]1NC(=O)[C@H](Cc2c[nH]c3ccccc23)NC(=O)[C@H](CCCNC(=N)N)NC(=O)[C@H](Cc2c[nH]c3ccccc23)NC(=O)[C@H](CCCNC(=N)N)NC(=O)[C@H](Cc2c[nH]c3ccccc23)NC(=O)[C@H](CCCNC(=N)N)NC(=O)[C@H](Cc2c[nH]c3ccccc23)NC(=O)[C@H](CCCNC(=N)N)NC(=O)[C@H](Cc2c[nH]c3ccccc23)NC(=O)[C@H](CCCNC(=N)N)NC(=O)[C@H](Cc2c[nH]c3ccccc23)NC(=O)[C@H](CCCNC(=N)N)NC(=O)[C@H](Cc2c[nH]c3ccccc23)NC(=O)[C@H](CCCNC(=N)N)NC(=O)[C@H](Cc2c[nH]c3ccccc23)NC(=O)[C@H](CCCNC(=N)N)NC(=O)[C@H](Cc2c[nH]c3ccccc23)NC1=O | Cyclin-dependent kinase 2, with cyclin A1 (CDK2, Homo sapiens, UniProt P24941) | kinase activity, Reaction Biology radiometric |  | concentration not given, with: ATP 200 µM | reference: DMSO | remaining activity | 5.6%
Oc1cc2c(cc1O)C(c1ccccc1)CNCC2 (racemic) | Carbamate kinase (Giardia intestinalis, UniProt A8BB85) | enzyme activity, inhibitor, luminescence, ATP detection | Giardia lamblia |  |  | maximal inhibition | 91.2%
[11CH3]Nc1ccc(-c2nc3ccc(O)cc3o2)cn1 | APP (Homo sapiens, UniProt P05067) | binding, PET, reference Logan | control subjects, hippocampus |  | reference: cerebellum | distribution volume ratio | 1.04 ± 0.04
NC(=O)CCC(=O)N1CCOC(CC(c2ccccc2)c2ccccc2)C1 (centres unmarked) | Troponin C, slow skeletal and cardiac muscles, with cTnI (TNNC1, Human, UniProt P63316, C35S/C84S/T53C) | stopped-flow fluorescence |  | 50 µM, IAANS-labelled chimera |  | Ca2+ dissociation rate | 57.6 ± 0.9 s⁻¹
CCCCOc1nc(N)c2[nH]c(=O)n(CCCN(CCCN3CCOCC3)Cc3cccc(CC(=O)OC)c3)c2n1 | TLR8 (Homo sapiens, UniProt Q9NR97) | NF-kB reporter gene, agonist | HEK293 cells | up to 10 µM |  | activity | inactive
Cc1csc(CCCNc2nc3c(c(=O)[nH]2)[n+](C)cn3C2OC(COP(=O)(O)OP(=O)([O-])OP(=O)(O)OCC3OC(n4cnc5c(=O)[nH]c(N)nc54)C(O)C3O)C(O)C2O)n1 (centres unmarked) | Eif4e (Mus musculus, UniProt P63073) | differential scanning fluorimetry |  |  | reference: m7GpppG | relative affinity | ~1.7
CCCCCCc1ccc(Oc2ccccc2C#N)c(O)c1 | Enoyl-[acyl-carrier-protein] reductase [NADPH] FabI (Staphylococcus aureus, UniProt Q6GI75) | binding |  |  |  | residence time | 107 min
Nc1nc2c(ncn2[C@H]2C[C@H](O)[C@@H](COP(=O)(O)OP(=O)(O)C(Br)(Br)P(=O)(O)O)O2)c(=O)[nH]1 | POLB | nucleotide incorporation, substrate, single turnover kinetics |  | dG misincorporation opposite A |  | kpol/Kd | 7.5 ± 2.4 M⁻¹ s⁻¹
COc1ccc(CNc2nc(-c3ccccc3OC)cc(C(F)(F)F)n2)cc1 | Secretin receptor (SCTR, Homo sapiens, UniProt P47872) | cAMP accumulation, positive allosteric modulator | CHO-K1 overexpressing SCTR | with: EC10-EC20 secretin peptide mix | reference: EC95 peptide mix | Emax | 39 ± 3.4%
Cc1csc(CNc2ccnc3cc(Cl)ccc23)n1 | Nuclear receptor subfamily 4 group A member 2, ligand binding domain (Homo sapiens, UniProt P43354) | reporter gene, agonist, Gal4-Nurr1 hybrid reporter | HEK-293T | 30 µM, crude library product | reference: vehicle (0.1% DMSO) | activation | ≤ 1.5 fold
Cc1ccc(NC(=O)CNS(=O)(=O)c2nc(-c3ccc(OC(F)(F)F)cc3)cc(C(F)(F)F)n2)cc1 | WRN (Homo sapiens, UniProt Q14191) | ATPase activity, ADP-Glo |  |  |  | maximal inhibition | 100%
CNc1ccccc1C(=O)O[C@H]1C[C@H](n2cnc3c(N)ncnc32)O[C@@H]1COP(=O)(O)OP(=O)(O)O | Unconventional myosin-Va (Gallus gallus, UniProt Q02440, D297C/G292C/I296C/S293C/V295G) | stopped-flow FRET, linear fit intercept |  | 10 °C, with: MgCl2 2 mM |  | dissociation rate constant | 1.65 ± 0.13 s⁻¹
CCn1c(-c2cc(NC(=O)c3cnccn3)n[nH]2)cc2ccccc21 | CSNK2A2 (Homo sapiens, UniProt P19784) | ATP-competitive test, ADP-Glo |  | with: ATP 10 to 500 µM | reference: high over low ATP | IC50 fold shift | ~35 fold
